Measured values pooled from the literature.
Each numbered part is a random draw from the data of one study; scales do not carry over between parts. Positions count from the first letter of the parent shown.

Series 1
Target: RING finger protein unkempt homolog, zinc fingers 1-6, GST-SBP tag (UNK, Homo sapiens, UniProt Q9C0B0, residues 30-357)
Sequence of UniProt Q9C0B0 (30-357, looked up): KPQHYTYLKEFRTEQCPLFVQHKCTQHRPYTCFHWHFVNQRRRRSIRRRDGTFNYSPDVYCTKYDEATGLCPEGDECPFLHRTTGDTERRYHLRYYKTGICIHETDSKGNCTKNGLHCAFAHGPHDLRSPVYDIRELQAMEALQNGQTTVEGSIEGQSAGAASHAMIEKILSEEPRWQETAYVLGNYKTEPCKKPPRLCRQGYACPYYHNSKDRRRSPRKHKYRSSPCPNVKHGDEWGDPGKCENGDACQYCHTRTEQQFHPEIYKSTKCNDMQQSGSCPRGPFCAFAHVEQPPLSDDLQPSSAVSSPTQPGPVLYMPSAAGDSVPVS
Method: RNA Bind-n-Seq
Form: RNA
Sample: in vitro
Tested at: not given
Notes: RNA with constant flanks, human-mouse chimeric sites, ends assumed
Relative to: input RNA pool
Direction: higher = stronger binding
Shared flanks, not repeated: GGGAGUUCUACAGUCCGACGAUC … CAACAGAGGAUUGAGCAUCA
The bound/input enrichment of `GUCAACAGUUGUCUCAACCCCAUCCUCUACGCCUUCCUGGAUGAGAACUUCAAGGCCUGCUUCCGCAAGUUCUGCUGUGCAUCUGCCCUGCACCGGGACGUGCAGGUGUCUGACCGCGUG` is reported as 0.409 ratio.
`CCCCAAUACCAUUUGCAAGAGUUGGAAUGCACUCUCUUUUUUAAAAAACAUGUAUACAUUUUAGGGCUGUAGAUUUAUUUUCCUGGUUUUGUUUUUCAUUGCUGACUUUGAGCACAAGAA` gave a bound/input enrichment of 1.78 ratio.
`AGAAUCUUGGGACUGUUUUGCUUGAUUGGUCAUUGAUAGCUUAACAAACAUGGAGAUAAGAUUAGAAAUCUUGACAUCAACAGGUAUUAAGCAGAAAAAACCAUGGCCACGUGUCUCCUG` has a bound/input enrichment of 0.112 ratio.
For `AACAGAUUGUCUUUAAGCAUUCCAAGCGAGAAUGCUGGGGUGAUCAUAAUUACCCACGUGCCUUCUGACUGAGCUUUAAUGCUGUUCCAUGUUACAUUGAUGUUCUUCUCCAGAAUUGUU`, the bound/input enrichment was 0.111 ratio.
With `UCAUUUUUCUCUUUUCUUUCUUUCCUUUAGGAAAAGCAGAUUAGACUGUAAGAAAAGAAAACAGAAGCCAUGUUUCGAAGACCUGUGUUACAGGUAUUUCGUCAGUUUGUAAGACAUGAG` the bound/input enrichment was 0.237 ratio.
`AGCACAACCCCAGCAAAGCUCAGGAACCCUUGUACAAGUGAACAGAACUGCACCAGCCCAUUUAGCUACAAAAAUGUGCUUAGUCUUACUGACAGAGGAGAGUUUUUCAAUGAACUUGUU` has a bound/input enrichment of 1.31 ratio.
For `AAAGCCCUUGAAGAAAAAAAAAACUCGAACAGAUUUGUCAAGGGUAACCAGCUUGGAGUCUAGCAACUUGCCAAUGUGUUUACCAAUCUGGGGGCUUGUUUUUCUUUUCUUCUUUCAAAU`, the bound/input enrichment was 0.387 ratio.
With `CAGCGCCGAGGCCGCGGUUUCCCCCUGGGCCUCCCCAGCCGCCGCCAUGGGCAUCAAGUUUUUAGAAGUUAUCAAACCAUUCUGUGCAGUUCUACCAGAAAUUCAGAAACCGGAAAGGAA` the bound/input enrichment was 0.852 ratio.
For `GCUGGAUCUUCUAAGUACCAGUGGGACAUUAUGAAAUCCCUUGGGCUCUCUGAUGACGACAUAGUGAAGUUUUCUGAAGCAGAGCACUGGCUUGAUUAUUUCCCACCACUGGCCGUUCAG`, the bound/input enrichment was 0.135 ratio.
`UCCCAAAUCCAGCAGCUAGAAGGAGCCUUGAGACAAACACUCCACACACAGGGAAGGCAAUAGCUUUGUACAUUGGUUUACAUUUUUUCCCCCUGUGGAUUUUUCUAGAGGUCAUAGUGC` has a bound/input enrichment of 0.58 ratio.
For `CUGGGCUUCUCUUUUCUUUCUUUCCUUUAGGAAAAGCCUAAAGAUUAGGUUGUAAGAAAAACAGAAGCCAUGUUUCGAAGACCUGUGUUACAGGUACUUCGUCAGUUUGUAAGACAUGAG`, the bound/input enrichment was 0.162 ratio.

Series 2
Target: CEP164, C-terminal peptide (human)
Method: DHFR complementation, deep sequencing
Sample: yeast
Notes: single substitutions, model-inferred values
Relative to: wild type
Direction: higher = weaker binding
Parent: PDZK1, PDZ domain 2 (human); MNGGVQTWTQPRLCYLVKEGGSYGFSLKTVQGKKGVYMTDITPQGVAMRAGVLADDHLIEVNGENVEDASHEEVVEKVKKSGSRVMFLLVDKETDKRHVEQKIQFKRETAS; partner HNRVKVYRF
For `N2R`, “binding free energy change” read -0.136 kcal/mol.
Under “binding free energy change”, `V78N` is recorded as 1.77 kcal/mol.
Under “binding free energy change”, `P43E` is recorded as 0.063 kcal/mol.
Under “binding free energy change”, `R49M` is recorded as 0.127 kcal/mol.
For `V30K`, “binding free energy change” read 0.237 kcal/mol.
`E64D`: “binding free energy change” 0.0528 kcal/mol.
Under “binding free energy change”, `V74W` is recorded as 0.911 kcal/mol.
Under “binding free energy change”, `V66P` is recorded as 0.701 kcal/mol.
Under “binding free energy change”, `T9H` is recorded as -0.038 kcal/mol.
`L58M`: “binding free energy change” 0.438 kcal/mol.
For `D95F`, “binding free energy change” read -0.351 kcal/mol.
`V36S`: “binding free energy change” 0.0355 kcal/mol.
For `M86W`, “binding free energy change” read -0.0335 kcal/mol.
Under “binding free energy change”, `T7S` is recorded as -0.0838 kcal/mol.
`G63Q` — result for “binding free energy change”: 0.189 kcal/mol.
For `W8E`, “binding free energy change” read -0.0705 kcal/mol.
`R97P` — result for “binding free energy change”: 0.0986 kcal/mol.
`P11S` — result for “binding free energy change”: 0.132 kcal/mol.
`D95Q`: “binding free energy change” -0.244 kcal/mol.

Series 3
Target: CCNA2, cyclin fold, Cln2 fusion (human)
Method: yeast growth competition, sequencing
Sample: yeast
Notes: strong parent motif
Relative to: not given
Direction: higher = stronger binding
Parent: RBL1 docking peptide (human); GSAKRRLFGEDPP; partner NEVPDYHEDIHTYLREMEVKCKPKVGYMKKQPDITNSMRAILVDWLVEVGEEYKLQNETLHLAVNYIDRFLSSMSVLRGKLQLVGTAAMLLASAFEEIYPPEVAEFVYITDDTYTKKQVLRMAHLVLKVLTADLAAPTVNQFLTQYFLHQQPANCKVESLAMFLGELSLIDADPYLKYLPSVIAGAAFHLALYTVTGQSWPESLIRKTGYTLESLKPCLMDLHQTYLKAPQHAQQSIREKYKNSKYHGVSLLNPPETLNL
Under “normalised enrichment score”, `P13A` is recorded as 5.67.
For `G1E`, “normalised enrichment score” read 4.61.
`P13V` — result for “normalised enrichment score”: 7.01.
Under “normalised enrichment score”, `R6D` is recorded as 0.345.
For `G1D`, “normalised enrichment score” read 4.5.
Under “normalised enrichment score”, `D11H` is recorded as 4.98.
For `E10T`, “normalised enrichment score” read 5.25.
`L7M` — result for “normalised enrichment score”: 1.51.
`L7E` — result for “normalised enrichment score”: 0.0658.
Under “normalised enrichment score”, `D11M` is recorded as 5.24.
`P12E` — result for “normalised enrichment score”: 6.71.
For `G9R`, “normalised enrichment score” read 6.7.
For `D11I`, “normalised enrichment score” read 5.36.
For `A3G`, “normalised enrichment score” read 1.8.
Under “normalised enrichment score”, `P13G` is recorded as 5.51.
`G9P` — result for “normalised enrichment score”: 6.2.
`L7Q` — result for “normalised enrichment score”: 0.625.
For `G9Y`, “normalised enrichment score” read 5.91.
`L7K` — result for “normalised enrichment score”: 1.31.
For `L7V`, “normalised enrichment score” read 1.53.
For `D11E`, “normalised enrichment score” read 5.99.
`L7F` — result for “normalised enrichment score”: 0.796.
For `L7I`, “normalised enrichment score” read 2.58.
`R5V`: “normalised enrichment score” 1.62.
`G9T`: “normalised enrichment score” 5.94.

Series 4
Target: RNA binding protein fox-1 homolog 2, RRM domain, GST-SBP tag (RBFOX2, Homo sapiens, UniProt O43251-10, residues 100-194)
Method: RNA Bind-n-Seq
Form: RNA
Sample: in vitro
Tested at: 365 nM
Notes: natural RNA segment, single round, ends assumed
Relative to: no-protein control
Direction: higher = stronger binding
Shared flanks, not repeated: GGGAGUUCUACAGUCCGACGAUC … UGGAAUUCUCGGGUGCCAA
Target sequence (chain): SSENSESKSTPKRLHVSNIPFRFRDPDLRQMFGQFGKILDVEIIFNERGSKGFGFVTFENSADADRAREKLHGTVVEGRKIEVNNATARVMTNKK
`AUCAGUGUUUUCCGUGUGAAUUUCCAACCUUGCACCCCGUUCCUUGUCCUUACUCUUGACUCCAUCCAGAAAAGAACCAGCAUCUGCAAACGCCAUGGGUGCCGUCAGCG` — result for “RBNS enrichment (R)”: 0.592.
Under “RBNS enrichment (R)”, `UGAGAAUCCAUUGGUGUGUACUGUGUGACACAAUGCCAACAAGCCUCUGGUUUCUAAUACUGGCAGGACCAACACACAUACUUUAGUGGGAAUAUAAUCUGUUUAGACGA` is recorded as 0.243.
`UACUUUGAGCCGGAUCUGGCCUGUGACUAGAAGACCAACCCCUACGAGGAAAUGUGGAGCUCAACGUGUGCACUGCUUGUAUGCGUGUGGAUGUGUGGAUCCCACCUGCC` — result for “RBNS enrichment (R)”: 0.612.
For `AUCAGACCCUUCAAGCAGCCUGGCUGGGGCCCAGGACUGAGUCUGGGGUCAGCUUUCACGGUCGCUUUUCCCUUCCUCACCACCCACCACAGCCCACCUUGCAUGCAUGG`, “RBNS enrichment (R)” read 3.96.
For `GAGGGUUUCGCUAGAACCAUUUUGUGAUUGCCACCAGCCAAGAUGGACUUUCUUCCCACCCCUUGCAGGGAGGUGUGAGCAGGAGACCCCUAGGGUGCCACUGAAUAAGA`, “RBNS enrichment (R)” read 0.462.
`AUGUAUUGCACUAUACUUCUAAUGGAACUAAUCAUCUCCACCAUAGUGUGUGCCUUCUAUAAAGGAGAAAGCAGCAAGGCCAUGUCCUUAGCAGGAACCUUUGCUAGCCA` — result for “RBNS enrichment (R)”: 1.13.
`UGUAUGCUUAUUUAUUUGGGGGGAAAACUAUACAUUAAAGGACCUUUGUCCUAAGCUCUCUCCCAGGCCACGUUGUUAUUCACUGGGCAUGGAGAGAUGGUCAUUUCGUG` — result for “RBNS enrichment (R)”: 0.503.
`AAGAUCUGGAACUAACGCCAGUAGCAUGUGGAUGCCAUGGAGACUGGAAGACCAUUCCAACUUGGACGCGUUACCAUGAGAGCAUAUCCUAUCCAACCGUACUAACGUGG` — result for “RBNS enrichment (R)”: 8.06.
For `UCAAAGCUCUUUUAAUGUAAUGGACAAAAAUAAGAUAUGAGAAUAUUAUUGAUGAAUUUUCAUAAGGUGGAAUUGAUCUUAAUCUACUAACAGAGAAGGGUAGACAGUUU`, “RBNS enrichment (R)” read 0.973.
For `AUCCCCACCCUGACUGAGACCUGUGAAGAUGCAGAGUGGCAGGGAAGGUCACAGAGCUCCACCACCCAUGUCCUGUGUCAACAACCCGGUCCCUGUGGCACCUGUAACUG`, “RBNS enrichment (R)” read 0.511.
Under “RBNS enrichment (R)”, `GUGAUUUCACCUUCGCCUACUAUGAAAUGUCUCAUCAGACCUGACAUGUCUGAGAUAACCAAGGUGAUUCAGGAUUUGAUCAAAAGAAGUCUAGUAAGAAUUAAUUACAC` is recorded as 0.239.
Under “RBNS enrichment (R)”, `AGGAUGACUGUGUGAGCAAAGAGCGCAGCUCCUCCAGGUGACCACAUGUGGCCGCUGUCUGUGCCAGGAUAUGCUCGCAGCCAGGCUUGGGGGGCUGACACCCAGAGAAC` is recorded as 0.409.

Series 5
Target: CREB3L3, bZIP domain (human)
Method: DHFR protein complementation
Sample: yeast
Notes: single substitutions, most at no-binding floor
Relative to: wild-type JUN-FOS pair
Direction: higher = stronger binding
Parent: JUN, bZIP domain (human); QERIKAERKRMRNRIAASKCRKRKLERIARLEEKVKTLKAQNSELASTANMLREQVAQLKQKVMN; partner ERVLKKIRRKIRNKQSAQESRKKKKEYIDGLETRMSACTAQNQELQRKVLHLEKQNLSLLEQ
`Q55M` has a binding fitness of -1.42 natural log.
`I28S` gave a binding fitness of -1.43 natural log.
`L31P` has a binding fitness of -1.52 natural log.
For `I28K`, the binding fitness was -1.31 natural log.
The binding fitness of `S47H` is reported as -1.49 natural log.
`V56S` gave a binding fitness of -1.5 natural log.
`K36F` gave a binding fitness of -1.46 natural log.
`T48L` has a binding fitness of -1.39 natural log.
For `K36W`, the binding fitness was -1.44 natural log.
For `E54A`, the binding fitness was -1.45 natural log.
`L45I` has a binding fitness of -1.44 natural log.

A few entries again (series 2):
`G63Q` — result for “binding free energy change”: 0.189 kcal/mol.
Under “binding free energy change”, `V74W` is recorded as 0.911 kcal/mol.
Under “binding free energy change”, `T9H` is recorded as -0.038 kcal/mol.
Under “binding free energy change”, `V78N` is recorded as 1.77 kcal/mol.
For `D95F`, “binding free energy change” read -0.351 kcal/mol.
`D95Q`: “binding free energy change” -0.244 kcal/mol.
